# Measured values of several laboratories.
# Every numbered part comes from another study and shows a few of its results, in no order. Substitutions count along the parent as printed.

# Study 1 — method: aptamer microarray, sandwich; molecule type: DNA with 2'F-ANA; medium: in vitro; concentration: 200 nM; added: Cy3 exosite-II aptamer, 400 nM; direction: higher = stronger binding; oligonucleotide: GGTTGGTGTGGTTGG
# Target: Prothrombin, mature alpha-thrombin (F2, Homo sapiens, UniProt P00734)
# Setting: whole 15-mer aptamer, many near background
Modification,mean fluorescence intensity
2'F-ANA at 2 3 4 8 12 14,414 a.u.
2'F-ANA at 1 4 7 8 12,393 a.u.
2'F-ANA at 1 6 13 14,57.3 a.u.
2'F-ANA at 4 6 7 9 10 11 12 14,63.8 a.u.
2'F-ANA at 1 3 4 5 6 7 8 9 14,43.8 a.u.
2'F-ANA at 1 2 3 5 6 9 14,63.8 a.u.
2'F-ANA at 2 4 6 7 8 9 10 14,63.7 a.u.
2'F-ANA at 3 4 5 9 10 14,50.9 a.u.

# Study 2 — method: RNA Bind-n-Seq; molecule type: RNA; medium: in vitro; concentration: 365 nM; relative to: no-protein control; direction: higher = stronger binding
# Target: RNA binding protein fox-1 homolog 2, RRM domain, GST-SBP tag (RBFOX2, Homo sapiens, UniProt O43251-10, residues 100-194)
# Setting: natural RNA segment, single round, ends assumed
# Target sequence (chain): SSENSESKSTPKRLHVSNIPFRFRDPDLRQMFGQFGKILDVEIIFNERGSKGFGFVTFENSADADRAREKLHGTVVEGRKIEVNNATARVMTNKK
Oligonucleotide,RBNS enrichment (R)
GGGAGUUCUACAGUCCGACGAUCUGUGUGUGUGUGCCAGAGUAGCUGCAUUCUGAUUCACUAAUCCCUCAUUUUAAUGUGUGCCUUAUGCCUUGAAUGGACCAGCUGAGAUCACUAUAUUUAUUCAAGCUGUGUGGAAUUCUCGGGUGCCAA,1.35
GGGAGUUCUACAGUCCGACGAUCUAGAUUAGGAUUAAAGUGGGUUUAAUCCAUUUUUAUAGCUGUAUGAAUUUUUCUAAACAGGAACAGCCAUUUGCAAAAUGGGUUUUCAUAGUGAUUGCAUCAAUUAUAACUGGAAUUCUCGGGUGCCAA,1.34
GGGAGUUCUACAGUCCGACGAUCCUGACCUGCCACGCCCUACAUGGUCCCCUGUGUAGCUUGCUAGCCUUGGGGGCCUGUCACUUGCCAAAGUAACAUUCCUCUCUUGGGCCAAAAUGAAUGCUGACUCCUGAUGGAAUUCUCGGGUGCCAA,0.746
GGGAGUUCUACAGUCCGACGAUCGGGGCUUCUGGGCCCCUGGGUAUCCCCACCUGUCGUGGCCACACCUCUGCCUGCCUCAUGCCCCUUCCCCCUGGCCUACCAAGGACAGCCCACAGCCCGCACUGCCGGCUUGGAAUUCUCGGGUGCCAA,1.14
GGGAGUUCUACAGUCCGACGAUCCCAGCCGGCGGACUGUGCUGUUUCCUCCGCCCCCACUCCCGUGUUUUCUGACCUCCUGCCUGAGUUUGGGGUAUUUAUAGACUAUUAAUUUUCUGACUGAGCCAAUAGUGUGGAAUUCUCGGGUGCCAA,0.525
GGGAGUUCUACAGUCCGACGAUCGUACUUACUGAGGUCCAUGUAUUAAUAAGAGGUCAGUCUGUACAAAAAUCUAAAGAUUUUUUCACUUUCUUUGUAUUAUUAUAUAUGAGUAACUUUUGAUACCAGAAUAAUGGAAUUCUCGGGUGCCAA,0.523
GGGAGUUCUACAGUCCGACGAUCUGUGAGCUCAGAAUUACUUUAAAAGGAGGUAACAGCCAGCCAUUACACCUAAAUUUAAUUUAUUUUAUUAAAAUAACAUAAUUGAGGGACCAUCAGAUAACUGUAUUUUGUGGAAUUCUCGGGUGCCAA,0.677
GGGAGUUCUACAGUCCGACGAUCAGAGCUUAGAGGAAAAAGGUCAGCUCUCUUCCUGUUAUACAUGGUUAUACAUGGUUGGGGUUUAAAAGCACAAAGAGAAACCUCCCCCUCCUGGCUUUCGUGGCCAUCUUUGGAAUUCUCGGGUGCCAA,0.257

# Study 3 — method: protein binding microarray; molecule type: double-stranded DNA, one strand shown; medium: in vitro; concentration: not given; relative to: not given; direction: higher = stronger binding
# Target: Histone acetyltransferase KAT6A, winged helix 2, GST fusion (KAT6A, Homo sapiens, UniProt Q92794, residues 85-181)
# Setting: 8-mer, flanks averaged, mean of 2 arrays, mostly near background
# Construct (chain): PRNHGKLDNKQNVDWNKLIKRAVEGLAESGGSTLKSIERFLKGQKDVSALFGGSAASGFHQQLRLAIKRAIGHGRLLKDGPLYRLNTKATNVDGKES
Oligonucleotide,E-score
CCAGGACC,0.146
TCAGCCCA,0.0235
ATTAAGGG,-0.039
CCTCGGAC,0.0212
ATCTGGTA,0.0202
CTTACCTC,-0.105
AATCGTTG,-0.0975
AACACTCG,0.0846

# Further values, each from its own experiment
# Parent: PafA, mature enzyme, eGFP fusion (Elizabethkingia meningoseptica, UniProt Q9KJX5); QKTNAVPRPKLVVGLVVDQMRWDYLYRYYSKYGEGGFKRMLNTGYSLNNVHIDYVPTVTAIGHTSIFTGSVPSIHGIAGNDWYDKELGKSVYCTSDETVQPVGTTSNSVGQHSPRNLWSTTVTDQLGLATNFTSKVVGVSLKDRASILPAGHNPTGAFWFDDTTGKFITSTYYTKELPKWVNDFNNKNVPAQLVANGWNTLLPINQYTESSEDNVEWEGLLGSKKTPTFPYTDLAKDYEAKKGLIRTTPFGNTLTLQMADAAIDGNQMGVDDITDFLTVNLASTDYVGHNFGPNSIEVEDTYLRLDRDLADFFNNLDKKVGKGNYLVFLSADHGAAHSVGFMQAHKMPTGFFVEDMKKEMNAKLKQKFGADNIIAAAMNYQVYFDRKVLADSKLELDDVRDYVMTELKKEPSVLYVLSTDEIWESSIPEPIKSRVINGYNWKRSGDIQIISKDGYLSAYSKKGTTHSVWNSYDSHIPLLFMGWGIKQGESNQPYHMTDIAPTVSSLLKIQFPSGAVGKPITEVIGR
Change,target,test,test system,conditions,scale,measurement,value
L417V,"vanadate, free oxyanion",microfluidic competitive inhibition,"in vitro, cell-free expressed","not given, derived from inhibition constants, unchanged parent 676 nM",lower = stronger binding,oxyanion analog dissociation constant,872 nM

# Excerpt of the above (study 1):
Modification,mean fluorescence intensity
2'F-ANA at 1 2 3 5 6 9 14,63.8 a.u.
2'F-ANA at 1 3 4 5 6 7 8 9 14,43.8 a.u.
2'F-ANA at 2 4 6 7 8 9 10 14,63.7 a.u.
